{"data": "Assay results collected from several papers", "note": "Each line is one published result; not all experiments were run side by side."}
{"SMILES": "CNC(=O)c1cc(Oc2ccc(NC(=O)Nc3cc(C(C)(C)C)nn3-c3ccc4ncccc4c3)c(F)c2)ccn1", "test system": "patients", "setting": "oral, dose not given, cycles 1 and 2, Medium Cmax subgroup", "endpoint": "patients with grade 1 musculoskeletal disorders", "value": "7%"}
{"SMILES": "COc1ccc([C@@H](O)c2cc(-c3ncnc4cc(N5CCOCC5)ccc34)c(F)cc2Cl)nn1", "assay": "item: Proctitis", "test system": "locally advanced rectal cancer patients", "setting": "dose not given, all dose groups, added: capecitabine plus radiotherapy", "endpoint": "patients with TEAE", "value": "47%"}
{"SMILES": "Cc1cc(NC2CCN(C(=O)OC3CCN(C(=O)/C=C/CN(C)C)C3)CC2)n2ncc(C(C)C)c2n1 (centres unmarked)", "test system": "patients with advanced solid tumours", "setting": "dose not given, Total arm, grade 3 or higher", "endpoint": "patients with adverse events", "value": "41%"}
{"SMILES": "O=C(Nc1nc2cccc(-c3ccc(CN4CCS(=O)(=O)CC4)cc3)n2n1)C1CC1", "test system": "rheumatoid arthritis patients", "setting": "oral, 100 mg twice daily, 4 weeks, regardless of relatedness", "endpoint": "patients with arthropod sting allergy", "value": "0%"}
{"SMILES": "CNC(=O)c1ccc(-c2cnc3ncc(Cc4ccc5ncccc5c4)n3n2)cc1F", "assay": "item: Anemia", "test system": "gastric cancer patients", "setting": "oral, 600 mg twice daily, expansion cohort, grade 3-4", "endpoint": "patients with adverse event", "value": "0%"}
{"SMILES": "C[C@@H](Nc1cc(F)cc(F)c1)c1cc(C(=O)N(C)C)cc2c(=O)cc(N3CCOCC3)oc12", "assay": "CTCAE v4, item: maculopapular rash", "test system": "patients with advanced solid tumours", "setting": "oral, dose not given, phase I dose finding", "endpoint": "patients discontinuing for AE", "value": "1.6%"}
{"SMILES": "NC(=O)N1c2ccccc2C=Cc2ccccc21", "test system": "male patients", "setting": "oral, dose not given, treatment-related adverse events", "endpoint": "patients with Pruritus", "value": "7%"}
{"SMILES": "CC(C)C[C@H](NC(=O)CNC(=O)c1cc(Cl)ccc1Cl)B(O)O", "assay": "item: Insomnia, all grades", "test system": "newly diagnosed multiple myeloma patients", "setting": "oral, dose not given, maintenance phase, new onset, cycle 17 or later", "endpoint": "patients with adverse event", "value": "0%"}
{"SMILES": "CCOc1c([C@H](C)n2nc(C)c3c(N)ncnc32)cc(Cl)c(F)c1[C@@H]1CNC(=O)C1", "assay": "item: QTcF change above 60 ms", "test system": "previously treated B-cell malignancy", "setting": "oral, 15 mg once daily, baseline QTcF ≤450 ms", "scale": "reference: baseline", "endpoint": "patients", "value": "0%"}
{"SMILES": "COc1cc(Nc2ncc3c(n2)-c2ccc(Cl)cc2C(c2c(F)cccc2OC)=NC3)ccc1C(=O)O", "test system": "cancer patients", "setting": "oral, dose not given, grade 3 any attribution, added: pembrolizumab", "endpoint": "patients with dry skin", "value": "4%"}
{"SMILES": "C=CC(=O)Nc1cc(Nc2nccc(-c3cn(C)c4ccccc34)n2)c(OC)cc1N(C)CCN(C)C", "assay": "item: treatment-related grade ≥3 Pneumonitis", "test system": "EGFR-mutant MET-altered NSCLC", "setting": "oral, dose not given, all", "endpoint": "patients with adverse events", "value": "1%"}
{"SMILES": "C=CC(=O)NC1CCN(c2ncc3ncnc(Nc4ccc(Oc5ccc6c(c5)ncn6C)c(C)c4)c3n2)CC1", "test system": "male patients", "setting": "oral, dose not given, treatment-related adverse events", "endpoint": "patients with Fatigue", "value": "6%"}
{"SMILES": "Cc1cc(-c2nnc(N)nc2-c2ccc(F)cc2)cc(Cl)n1", "assay": "item: Rash", "test system": "IO-naive mCRPC patients, male", "setting": "oral, dose not given, treatment-related, grade ≥3", "endpoint": "patients with immune-mediated AE", "value": "0%"}
{"SMILES": "CCO[C@H]1CCN(Cc2c(OC)cc(C)c3[nH]ccc23)[C@H](c2ccc(C(=O)O)cc2)C1", "assay": "item: Headache", "test system": "PNH patients, active haemolysis", "setting": "oral, 200 mg twice daily, extension phase", "endpoint": "patients with adverse event", "value": "0%"}
{"note": "A few entries again:"}
{"SMILES": "CCOc1c([C@H](C)n2nc(C)c3c(N)ncnc32)cc(Cl)c(F)c1[C@@H]1CNC(=O)C1", "assay": "item: QTcF change above 60 ms", "test system": "previously treated B-cell malignancy", "setting": "oral, 15 mg once daily, baseline QTcF ≤450 ms", "scale": "reference: baseline", "endpoint": "patients", "value": "0%"}
